# Assay results pooled from the literature.
# Parts stem from different laboratories: compare values within a part only.

# Series 1
# Target: Interferon regulatory factor 5, full length, phosphomimetic (IRF5, Homo sapiens, UniProt Q13568-2, residues 1-514, S451D/S453D/S456D/S462D)
# Method: protein-binding microarray
# Form: double-stranded DNA, one strand shown
# Medium: in vitro
# Concentration: 940 nM top
# Notes: 60-bp whole probe
# With: salmon DNA 0.4 mg/ml
# Relative to: random background probes
# Reading: higher = stronger binding
# Constant ends, left off below: GCCTAGCAC … GTCTTGATTCGCTTGACGCTGCTG
Oligonucleotide,fitted relative affinity [z-score]
GACGGTTTCCTACTGCTGTCGTGCTAG,1.64
GACGATCTCAGTATCGTGACGTGCTAG,0.743
TTAGGTGTCGACTATCGGTTAGTGCTA,0.386
TTAGGACTGGGACTTGGTTAGTGCTAG,-0.338
TTAGATATCAGGTTTCGATTAGTGCTA,5.77
TCAATACTCTTCCATGGAACTGTGCTA,0.468
GACGATATCAGTATCTAGACGTGCTAG,-0.0857
TTAGATTTCAGTTCCGATTCGTGCTAG,1.74

# Series 2
# Target: Replicase polyprotein 1ab, polymerase (rep, Severe acute respiratory syndrome coronavirus 2, UniProt P0DTD1)
# Read-out: enzyme activity
# Mode: inhibitor
# Concentration: 20 µM
Structure (SMILES),inhibition [%]
NCCCC[C@H](NC(=O)[C@@H](Cc1cc(Br)c(O)c(Br)c1)NC(=O)N1CCC(N2Cc3ccccc3NC2=O)CC1)C(=O)N1CCN(c2ccncc2)CC1,1.31
CCN(CC)CCc1nc(-c2ccccc2)no1,-2.85
CC[C@H](CC[C@@H](C)[C@H]1CC[C@H]2[C@@H]3CC=C4C[C@@H](O[C@@H]5O[C@H](CO)[C@@H](O)[C@H](O)[C@H]5O)CC[C@]4(C)[C@H]3CC[C@]12C)C(C)C,-3.77
CC#C[C@@H](CC(=O)O)c1ccc(OCc2cccc(-c3ccc(C(F)(F)F)cc3)c2)cc1,3.38
CC[C@H]1OC(=O)[C@H](C)C(=O)[C@H](C)[C@@H](O[C@@H]2O[C@H](C)C[C@H](N(C)C)[C@H]2O)[C@](C)(OC)C[C@@H](C)C(=O)[C@H](C)[C@H]2N(CCCCn3cnc(-c4cccnc4)c3)C(=O)O[C@]12C,-3.09
COc1cc([C@H]2Oc3ccc([C@H]4Oc5cc(O)cc(O)c5C(=O)[C@@H]4O)cc3O[C@@H]2CO)ccc1O,13.8
Clc1ccc(CCC(Cn2ccnc2)Sc2c(Cl)cccc2Cl)cc1 (centres unmarked),-4.59
CC1(C)Oc2ccc(C#N)cc2[C@@H](N2CCCC2=O)[C@@H]1O,1.51
Cc1cnc(C(=O)O)c[n+]1[O-],-3.15
COc1ccc2c(c1)c(CC(=O)OCC(C(=O)O)c1ccccc1)c(C)n2C(=O)c1ccc(Cl)cc1 (centres unmarked),-3.4
O=CN1CCC(C(=O)NCCN2CCC(=C3c4ccccc4C=Cc4ccccc43)CC2)CC1,-2.77
O=C(NC1CCOCC1)c1ccc(-c2cc(-c3c[nH]nc3-c3ccccn3)ccn2)cc1,-7.99
C=C(c1ccccc1OCc1cccc(Cl)c1)n1ccnc1,-2.78
C[N+]1(C)CCCC(OC(=O)C(O)(c2ccccc2)c2ccccc2)C1 (centres unmarked),19.3
Clc1ccc(C2(c3ccc(-c4cn[nH]c4)cc3)CCNCC2)cc1,2.3
O=C(O)c1ccc(SSc2ccc(C(=O)O)cn2)nc1,-0.12
Cn1c(=O)c(F)c(Nc2ccc(I)cc2F)c2c(=O)n(C[C@@H](O)CO)cnc21,-3.22
C=C(C)[C@H]1CN[C@H](C(=O)O)[C@H]1CC(=O)O,0.46
CC(=O)Oc1c(C)cccc1C(=O)O,-1.01
O=C(c1c(F)ccc(NS(=O)(=O)N2CC[C@@H](F)C2)c1F)c1c[nH]c2ncc(-c3cnc(C4CC4)nc3)cc12,4.99
Oc1ncnc2[nH]ncc12,0.33
COC(=O)[C@]12CCC(C)(C)C[C@H]1[C@H]1C(=O)C=C3[C@@]4(C)C=C(C#N)C(=O)C(C)(C)[C@@H]4CC[C@@]3(C)[C@]1(C)CC2,-5.27
Nc1nc(=O)n([C@@H]2CS[C@H](CO)O2)cc1F,-1.64
CN1CCN(C2=Cc3ccccc3Oc3ccc(Cl)cc32)CC1,-5.65
CCc1cc2cc(OC)c(OC)cc2c(Cc2ccccc2)n1,4.69

# Series 3
# Target: Histone acetyltransferase KAT6A, winged helix 1, GST fusion (KAT6A, Homo sapiens, UniProt Q92794, residues 1-85)
# Method: protein binding microarray
# Form: double-stranded DNA, one strand shown
# Medium: in vitro
# Concentration: not given
# Notes: 8-mer, flanks averaged, mean of 2 arrays, mostly near background
# Relative to: not given
# Reading: higher = stronger binding
# Construct (chain): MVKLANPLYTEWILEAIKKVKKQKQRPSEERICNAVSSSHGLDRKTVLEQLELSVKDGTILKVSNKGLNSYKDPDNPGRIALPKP
Oligonucleotide,E-score
GTTAGTAA,-0.11
ACCCTACC,0.0106
GGCTCAGA,0.0604
AAGCCTCC,-0.00447
AAGGGTTA,0.0231
CCGTGACG,0.307
CTAAACTC,-0.0953
ATTTTTAA,-0.125

# Series 4
# Target: RNA binding protein fox-1 homolog 2, RRM domain, GST-SBP tag (RBFOX2, Homo sapiens, UniProt O43251-10, residues 100-194)
# Method: RNA Bind-n-Seq
# Form: RNA
# Medium: in vitro
# Concentration: 365 nM
# Notes: natural RNA segment, single round, ends assumed
# Relative to: no-protein control
# Reading: higher = stronger binding
# Residues (chain): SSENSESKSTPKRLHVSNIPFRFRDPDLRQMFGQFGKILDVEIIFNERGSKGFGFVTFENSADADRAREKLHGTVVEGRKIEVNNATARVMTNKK
Oligonucleotide,RBNS enrichment (R)
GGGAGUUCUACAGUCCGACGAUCAAGACAUAUCAUGUGUGAGAUAACUUCCUUCACAUCUCCCAUGGUCCCUAGCAAAAUGCUAGGCCUGUAGUAGUCAAGGUGCUCAAUAAAUAUUUGUUUGGGUGGUUUGUUGGAAUUCUCGGGUGCCAA,0.321
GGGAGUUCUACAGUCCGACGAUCCAUCCUGUGAGUUUGAGCUUCAGGAAACAUGAGUAAAAGUAUAUGUAAUGUAUAUAGUCGUAUAUGUAUUCUAGCAAGAAAAACAUAUUUAUUUUGACAAAGGGGAACACUGGAAUUCUCGGGUGCCAA,0.47
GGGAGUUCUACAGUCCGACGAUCCUGUGUUUGCUCCCAAAUCUGCUGAUGGUGGCUCAUUUCUAUCCUGUUUUCCCUUUGGUCCCAGGCCCUGGGGGAAAGGAAGGAAGUGCAUGCUUGGGGACUGGUCCCACUGGAAUUCUCGGGUGCCAA,2.2
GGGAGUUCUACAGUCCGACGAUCCGCUGGCUAUGGCCGUGCACUCCCCGUCCUGUCCACUUCUGAAACUCUUGUUCCUAACGACAACGUGGCUAUGUGCAAUGGAGACAAACUGGACUGUGAGUCUCUUGGUUUGGAAUUCUCGGGUGCCAA,0.339
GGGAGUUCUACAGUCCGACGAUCCGUGGUGGCUUUUCAUCCAGGCCUCGUAGCCAACCGUUUAAGUGCAAAAUAGAAUUAAGCAAUGGGUAAGCAAAAUAGGGUUGACAAGAUAUUUGGGGGUUAUUCGGGUUUGGAAUUCUCGGGUGCCAA,0.809
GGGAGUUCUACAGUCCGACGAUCGGGAGAGGCGGGGAAUAAAGUGCCUAUUCUGCCAGUGUCUGGGACUUCUUUAUGGACAGAAGGGGACCCUGAUGAGACCACGCCCGGCGUUUUUACUGUGAAUGUAAAUGUGGAAUUCUCGGGUGCCAA,0.775
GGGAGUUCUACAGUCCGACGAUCGCCCCUAGGUGGGCAGAGGCAGACCCUCCCCAGAGCUCCUUAGGAAGAAGACAGACUGGUUCAUUGAAUGCCGCCUUAUUUAUUUCUGGUGAGGAUGCAUGCGUGGGGCUUGGAAUUCUCGGGUGCCAA,5.45
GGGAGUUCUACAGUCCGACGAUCCCUCCAGCCUGAGCUCUCAAGAGGUGGUAGAGCUAAGCUCUGGAGGUGGAGUCUUAGGAAGACCCAGGAGUGACUGAGCAGGACAGUAAAGGGAUUCUCCUCAGAACCCAUGGAAUUCUCGGGUGCCAA,0.652

# Single results of other studies
SMILES,organism,read-out,cell line,concentration,endpoint,value
CC(C)N(CCC(=O)c1ccc2ccccc2c1)Cc1ccccc1,SARS-CoV-2,cytopathic effect,Vero E6,10 µM,inhibition,-25.9%

# For quick reference, copied from above (series 2):
Structure (SMILES),inhibition [%]
O=C(O)c1ccc(SSc2ccc(C(=O)O)cn2)nc1,-0.12
Cn1c(=O)c(F)c(Nc2ccc(I)cc2F)c2c(=O)n(C[C@@H](O)CO)cnc21,-3.22
Oc1ncnc2[nH]ncc12,0.33
CN1CCN(C2=Cc3ccccc3Oc3ccc(Cl)cc32)CC1,-5.65
CCN(CC)CCc1nc(-c2ccccc2)no1,-2.85
Cc1cnc(C(=O)O)c[n+]1[O-],-3.15
